Results collected from several papers.
Protocols differ between the studies behind these lines. ± gives the spread as reported.
Alpha-galactosidase: Alpha-galactosidase (Coffea arabica, UniProt Q42656)
UniProt Q42656, sequence (whole entry, looked up): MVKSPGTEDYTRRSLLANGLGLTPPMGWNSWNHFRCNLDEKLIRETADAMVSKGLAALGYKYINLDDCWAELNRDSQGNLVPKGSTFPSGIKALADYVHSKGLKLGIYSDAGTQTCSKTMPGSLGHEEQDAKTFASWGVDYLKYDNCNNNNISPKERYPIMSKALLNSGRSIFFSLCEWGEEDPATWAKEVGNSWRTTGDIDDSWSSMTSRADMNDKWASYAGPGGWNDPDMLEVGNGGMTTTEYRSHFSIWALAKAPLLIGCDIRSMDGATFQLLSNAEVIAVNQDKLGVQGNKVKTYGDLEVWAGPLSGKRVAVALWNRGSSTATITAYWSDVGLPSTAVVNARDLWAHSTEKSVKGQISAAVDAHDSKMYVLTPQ
BIRC3 BIR3: Baculoviral IAP repeat-containing protein 3, BIR3 (BIRC3, Homo sapiens, UniProt Q13489)
UniProt Q13489, sequence (whole entry, looked up): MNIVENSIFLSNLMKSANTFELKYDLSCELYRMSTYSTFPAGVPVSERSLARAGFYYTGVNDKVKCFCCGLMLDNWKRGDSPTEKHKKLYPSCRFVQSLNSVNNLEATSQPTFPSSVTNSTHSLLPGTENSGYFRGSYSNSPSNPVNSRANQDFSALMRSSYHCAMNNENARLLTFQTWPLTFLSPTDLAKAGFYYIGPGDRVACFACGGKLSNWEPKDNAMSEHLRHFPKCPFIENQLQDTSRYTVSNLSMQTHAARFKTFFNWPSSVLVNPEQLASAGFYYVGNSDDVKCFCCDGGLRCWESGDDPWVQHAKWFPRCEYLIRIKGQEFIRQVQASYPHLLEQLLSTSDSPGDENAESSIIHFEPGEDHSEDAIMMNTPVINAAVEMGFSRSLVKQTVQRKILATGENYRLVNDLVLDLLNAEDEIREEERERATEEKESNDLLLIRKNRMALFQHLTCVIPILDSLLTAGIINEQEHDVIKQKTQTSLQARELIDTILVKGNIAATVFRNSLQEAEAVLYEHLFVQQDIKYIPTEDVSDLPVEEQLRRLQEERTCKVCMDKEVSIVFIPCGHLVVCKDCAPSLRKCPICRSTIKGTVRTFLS
UniProt O96013, sequence (whole entry, looked up): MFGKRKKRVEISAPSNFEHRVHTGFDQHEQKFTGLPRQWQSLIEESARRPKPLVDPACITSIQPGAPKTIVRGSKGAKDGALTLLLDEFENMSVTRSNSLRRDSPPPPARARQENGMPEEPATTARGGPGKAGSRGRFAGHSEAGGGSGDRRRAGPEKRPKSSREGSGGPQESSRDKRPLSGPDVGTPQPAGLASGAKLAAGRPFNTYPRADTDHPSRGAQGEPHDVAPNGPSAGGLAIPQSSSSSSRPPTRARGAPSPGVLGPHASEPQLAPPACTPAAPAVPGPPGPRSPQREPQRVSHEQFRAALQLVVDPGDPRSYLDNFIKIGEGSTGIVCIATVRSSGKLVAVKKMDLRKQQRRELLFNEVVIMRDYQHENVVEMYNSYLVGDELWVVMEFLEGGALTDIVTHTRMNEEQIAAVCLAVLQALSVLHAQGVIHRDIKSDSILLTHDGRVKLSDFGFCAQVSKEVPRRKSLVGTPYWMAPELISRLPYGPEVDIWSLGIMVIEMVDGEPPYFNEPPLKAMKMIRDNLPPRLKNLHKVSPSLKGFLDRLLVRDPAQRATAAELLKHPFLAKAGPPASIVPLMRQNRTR
UniProt P21728, sequence (whole entry, looked up): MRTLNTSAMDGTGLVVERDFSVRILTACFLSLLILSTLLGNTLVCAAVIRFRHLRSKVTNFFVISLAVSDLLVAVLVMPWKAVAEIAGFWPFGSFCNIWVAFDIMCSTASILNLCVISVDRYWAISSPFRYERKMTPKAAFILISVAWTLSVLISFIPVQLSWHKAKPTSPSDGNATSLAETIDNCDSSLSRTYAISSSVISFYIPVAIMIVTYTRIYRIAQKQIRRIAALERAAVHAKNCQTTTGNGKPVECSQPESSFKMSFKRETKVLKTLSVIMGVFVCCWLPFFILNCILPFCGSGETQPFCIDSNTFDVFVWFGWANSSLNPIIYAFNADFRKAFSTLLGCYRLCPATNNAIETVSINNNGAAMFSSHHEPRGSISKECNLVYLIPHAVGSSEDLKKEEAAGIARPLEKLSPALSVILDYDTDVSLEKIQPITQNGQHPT
UniProt P04746, sequence (whole entry, looked up): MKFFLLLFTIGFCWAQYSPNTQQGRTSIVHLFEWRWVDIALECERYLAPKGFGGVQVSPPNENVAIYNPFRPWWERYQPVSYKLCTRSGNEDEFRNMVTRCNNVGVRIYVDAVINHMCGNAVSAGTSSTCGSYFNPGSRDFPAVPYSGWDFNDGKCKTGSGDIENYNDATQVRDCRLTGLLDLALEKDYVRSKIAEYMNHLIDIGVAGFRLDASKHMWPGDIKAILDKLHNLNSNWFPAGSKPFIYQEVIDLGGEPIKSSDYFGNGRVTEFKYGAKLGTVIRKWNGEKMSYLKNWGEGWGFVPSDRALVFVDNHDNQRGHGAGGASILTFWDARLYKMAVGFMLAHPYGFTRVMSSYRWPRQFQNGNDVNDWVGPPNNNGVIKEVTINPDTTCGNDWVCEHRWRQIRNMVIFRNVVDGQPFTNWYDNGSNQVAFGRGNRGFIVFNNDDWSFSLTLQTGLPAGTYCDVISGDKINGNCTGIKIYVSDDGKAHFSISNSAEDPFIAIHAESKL
UniProt Q13490, sequence (whole entry, looked up): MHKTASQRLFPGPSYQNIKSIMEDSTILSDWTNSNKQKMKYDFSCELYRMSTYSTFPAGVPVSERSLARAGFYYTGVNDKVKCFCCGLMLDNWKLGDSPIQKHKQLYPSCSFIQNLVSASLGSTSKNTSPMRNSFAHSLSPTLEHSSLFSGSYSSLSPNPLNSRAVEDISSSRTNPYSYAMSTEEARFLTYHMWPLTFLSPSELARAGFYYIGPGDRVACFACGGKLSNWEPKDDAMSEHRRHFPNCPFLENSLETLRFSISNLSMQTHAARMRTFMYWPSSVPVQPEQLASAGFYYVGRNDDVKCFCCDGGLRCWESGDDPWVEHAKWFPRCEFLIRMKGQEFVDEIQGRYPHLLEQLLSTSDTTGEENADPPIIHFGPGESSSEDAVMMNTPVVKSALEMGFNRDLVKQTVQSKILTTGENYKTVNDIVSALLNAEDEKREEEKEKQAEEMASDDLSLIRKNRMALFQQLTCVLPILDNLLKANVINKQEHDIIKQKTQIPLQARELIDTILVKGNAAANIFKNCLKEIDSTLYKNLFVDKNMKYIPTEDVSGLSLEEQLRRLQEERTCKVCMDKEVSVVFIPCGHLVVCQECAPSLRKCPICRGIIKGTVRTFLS
UniProt P25929, sequence (whole entry, unmodified, looked up): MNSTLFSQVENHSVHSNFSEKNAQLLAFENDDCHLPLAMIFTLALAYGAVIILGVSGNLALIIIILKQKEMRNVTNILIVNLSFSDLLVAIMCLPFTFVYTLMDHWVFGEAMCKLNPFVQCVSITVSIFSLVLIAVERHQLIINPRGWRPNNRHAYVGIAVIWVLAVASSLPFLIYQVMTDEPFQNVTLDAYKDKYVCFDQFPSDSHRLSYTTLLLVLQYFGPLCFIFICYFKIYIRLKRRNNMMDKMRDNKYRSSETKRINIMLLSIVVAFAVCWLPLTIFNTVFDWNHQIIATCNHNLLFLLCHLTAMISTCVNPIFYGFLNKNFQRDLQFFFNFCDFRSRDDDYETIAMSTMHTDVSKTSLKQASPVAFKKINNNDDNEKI
UniProt P34972, sequence (whole entry, looked up): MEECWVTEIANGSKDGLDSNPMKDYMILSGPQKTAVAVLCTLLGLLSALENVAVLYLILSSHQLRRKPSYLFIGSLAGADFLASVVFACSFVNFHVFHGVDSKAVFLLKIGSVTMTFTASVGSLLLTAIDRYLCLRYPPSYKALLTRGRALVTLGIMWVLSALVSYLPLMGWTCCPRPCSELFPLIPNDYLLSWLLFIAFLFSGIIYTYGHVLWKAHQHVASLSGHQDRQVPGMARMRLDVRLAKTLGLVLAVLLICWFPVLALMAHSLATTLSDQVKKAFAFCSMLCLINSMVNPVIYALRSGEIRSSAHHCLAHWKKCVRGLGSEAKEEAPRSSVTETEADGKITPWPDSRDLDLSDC
UniProt P00383, sequence (whole entry, looked up): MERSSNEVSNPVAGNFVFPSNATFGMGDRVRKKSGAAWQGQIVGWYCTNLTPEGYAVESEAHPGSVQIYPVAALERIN
UniProt P35218, sequence (whole entry, looked up): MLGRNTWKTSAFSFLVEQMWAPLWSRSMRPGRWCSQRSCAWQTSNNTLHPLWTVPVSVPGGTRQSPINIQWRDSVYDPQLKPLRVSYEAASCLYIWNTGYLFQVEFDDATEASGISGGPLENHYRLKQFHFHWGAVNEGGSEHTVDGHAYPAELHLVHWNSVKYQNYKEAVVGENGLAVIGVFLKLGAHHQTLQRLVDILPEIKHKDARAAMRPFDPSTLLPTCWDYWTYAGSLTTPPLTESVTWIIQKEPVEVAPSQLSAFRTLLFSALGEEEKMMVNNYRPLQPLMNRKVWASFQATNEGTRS
UniProt P14902, sequence (whole entry, looked up): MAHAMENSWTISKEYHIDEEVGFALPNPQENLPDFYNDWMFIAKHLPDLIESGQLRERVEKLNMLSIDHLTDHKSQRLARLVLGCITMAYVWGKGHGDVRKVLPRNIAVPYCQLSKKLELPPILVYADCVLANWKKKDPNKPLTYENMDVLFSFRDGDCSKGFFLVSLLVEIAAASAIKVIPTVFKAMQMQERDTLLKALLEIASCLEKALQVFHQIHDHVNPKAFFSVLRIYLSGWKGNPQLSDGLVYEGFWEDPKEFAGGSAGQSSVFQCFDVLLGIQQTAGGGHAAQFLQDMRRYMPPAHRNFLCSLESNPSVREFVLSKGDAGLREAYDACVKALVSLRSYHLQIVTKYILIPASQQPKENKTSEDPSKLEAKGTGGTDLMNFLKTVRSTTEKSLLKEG

O=C(Nc1cccc(-c2nn[nH]n2)c1)c1cc(-c2ccccn2)cc(C(F)(F)F)c1
Ki (Beta-lactamase CTX-M-27 (Escherichia coli, UniProt Q840M4); enzyme activity, inhibitor, absorbance; pH 7): 3.92 µM

CCCCCCCCNC(=S)N1[C@H](CCC)[C@H](O)[C@@H](O)[C@H](O)[C@H]1CO
Ki (Alpha-galactosidase; enzyme activity, competitive inhibitor; green coffee bean enzyme, optimal pH, with: p-nitrophenyl glycopyranoside): > 2000 µM

COCCOc1cc2ncnc(Nc3cccc(-c4cn([C@H]5C[C@H](n6cc(C)c(=O)[nH]c6=O)O[C@@H]5CO)nn4)c3)c2cc1OCCOC
Ki (CA5A (Homo sapiens, UniProt P35218); enzyme activity, inhibitor, stopped-flow): 0.145 µM

CN[C@@H](C)C(=O)N[C@H]1CN(C(=O)Cc2ccccc2)CC[C@H]2CC[C@@H](C(=O)NCc3ccccc3C(F)(F)F)N2C1=O
Ki (BIRC3 BIR3; ligand displacement, FP): 0.0554 µM

C[C@H]1CN(C(=O)c2cn(-c3ccnc(N)n3)c3cc(C#CC4(O)CCCCC4)ccc23)CCN1
Ki (PAK4 (Homo sapiens, UniProt O96013); cell-free assay, inhibitor, TR-FRET): 0.0102 µM

CNC(=O)C(CS)N1C(=O)c2ccc(N(C)C)cc2C1=O (stereo not shown)
Ki (VIM-2 (Escherichia coli, UniProt Q5U7L7); enzyme activity, inhibitor; Km 8 µM, with: chromacef 25 µM): 0.56 ± 0.05 µM

CCC[C@@H]1[C@H](O)[C@@H](O)[C@H](O)[C@@H](CO)N1C(=S)NCc1ccc(C(F)(F)F)cc1
Ki (Alpha-galactosidase; enzyme activity, competitive inhibitor; green coffee bean enzyme, optimal pH, with: p-nitrophenyl glycopyranoside): > 2000 µM

CCOC(=O)CNC(=O)/N=C(/N)NCCC[C@@H](NC(=O)C(c1ccccc1)c1ccccc1)C(=O)NCc1ccc(O)cc1
Kb (NPY1R (Homo sapiens, UniProt P25929, F286A); antagonist; human cells): 0.00029 µM

COc1cc(CNC(=O)C[C@H](C)CCC=C(C)C)ccc1OCc1cn(-c2cccc([N+](=O)[O-])c2)nn1
growth percent (Malme-3M melanoma cells; SRB; 10 µM, 48 h): 71.4%

[64Cu+2].c1cnc(CNCc2ccc(CN3CCCN4CCNCCCN(CC4)CC3)cc2)nc1
tissue uptake (CXCR4; NOD/SCID mouse, U87 and U87-stb-CXCR4 xenografts, heart; iv, 30 min, ex vivo): 2.03 ± 0.15 %ID/g

CCOC(=O)[C@](CC)(CCCSCCOCCOCCNC(=O)c1ccc(C(=O)[O-])c(C2=C3C=CC(=[N+](C)C)C=C3[Si](C)(C)c3cc(N(C)C)ccc32)c1)NC(=O)c1ccc(C2CC2)c(Cc2ccc(F)cc2)n1
Ki (CNR2 (Homo sapiens, UniProt P34972); binding): 0.062 µM

CN[C@@H](C)C(=O)N[C@H]1CN(C(=O)Cc2ccccc2)CC[C@H]2CC[C@@H](C(=O)NCc3ccc(OC)cc3)N2C1=O
Ki (BIRC3 BIR3; ligand displacement, FP): 0.0473 µM

O=C(O)c1ccc2nc(-c3ccc(OCCCCCCOc4ccc(-c5nc6ccc(C(=O)O)cc6[nH]5)cc4)cc3)[nH]c2c1
Ki (Dihydrofolate reductase type 2 (Escherichia coli, UniProt P00383); enzyme activity, inhibitor; pH 7): 5.5 ± 3 µM

CN[C@@H](C)C(=O)N[C@H]1CN(C(=O)Cc2ccccc2)CC[C@H]2CC[C@@H](C(=O)NCc3ccc(C(N)=O)cc3)N2C1=O
Ki (Baculoviral IAP repeat-containing protein 2, BIR3 (BIRC2, Homo sapiens, UniProt Q13490); ligand displacement, FP): 0.274 µM

COC1=Cc2c(cc(O)c3cc(C)c(OC)cc23)C(C)(C)C1=O
Ki (IDO1 (Homo sapiens, UniProt P14902); enzyme activity, inhibitor; with: L-tryptophan 7.5 to 30 µM): 6.9 µM

O=C(O)CC[C@H](NC(=O)/C=C/c1ccc(O)c(O)c1)C(=O)NCCCOc1c(-c2ccc(O)c(O)c2)oc2cc(O)cc(O)c2c1=O
Ki (Pancreatic alpha-amylase (Homo sapiens, UniProt P04746); inhibitor; pH 7): 34 ± 5 µM

CN[C@@H](C)C(=O)N[C@H]1CN(C(=O)Cc2ccccc2)CC[C@H]2CC[C@@H](C(=O)NCc3ccc(-c4ccccc4)cc3)N2C1=O
Ki (BIRC3 BIR3; ligand displacement, FP): 0.172 µM

CC1(C)C2=C3C=C4C5=[N+](CCC4OC3CCN2c2ccc(S(=O)(=O)[O-])cc21)c1ccc(C(=O)NCCCCOc2ccc(C(=O)CCCN3CCC(O)(c4ccc(Cl)cc4)CC3)cc2)cc1C5(C)C (stereo not shown)
Ki (DRD1 (Homo sapiens, UniProt P21728); cell-free assay, radioligand): 3.6 µM

COc1cc(CNC(=O)C[C@H](C)CCC=C(C)C)ccc1OCc1cn(-c2cccc(Cl)c2)nn1
growth percent (SW-620; SRB; 10 µM, 48 h): 97.4%

For quick reference, copied from above:
CCC[C@@H]1[C@H](O)[C@@H](O)[C@H](O)[C@@H](CO)N1C(=S)NCc1ccc(C(F)(F)F)cc1
Ki (Alpha-galactosidase; enzyme activity, competitive inhibitor; green coffee bean enzyme, optimal pH, with: p-nitrophenyl glycopyranoside): > 2000 µM

CN[C@@H](C)C(=O)N[C@H]1CN(C(=O)Cc2ccccc2)CC[C@H]2CC[C@@H](C(=O)NCc3ccc(OC)cc3)N2C1=O
Ki (BIRC3 BIR3; ligand displacement, FP): 0.0473 µM

CCOC(=O)CNC(=O)/N=C(/N)NCCC[C@@H](NC(=O)C(c1ccccc1)c1ccccc1)C(=O)NCc1ccc(O)cc1
Kb (NPY1R (Homo sapiens, UniProt P25929, F286A); antagonist; human cells): 0.00029 µM
